Measured values gathered from unrelated publications.
Lines come from different studies, so protocols differ. Numbers after ± are the reported error.
CDK2: Cyclin-dependent kinase 2 (CDK2, Homo sapiens, UniProt P24941)
Cyp2b1: Cytochrome P450 2B1 (Cyp2b1, Rattus norvegicus, UniProt P00176)
UniProt P00176, sequence (whole entry, looked up): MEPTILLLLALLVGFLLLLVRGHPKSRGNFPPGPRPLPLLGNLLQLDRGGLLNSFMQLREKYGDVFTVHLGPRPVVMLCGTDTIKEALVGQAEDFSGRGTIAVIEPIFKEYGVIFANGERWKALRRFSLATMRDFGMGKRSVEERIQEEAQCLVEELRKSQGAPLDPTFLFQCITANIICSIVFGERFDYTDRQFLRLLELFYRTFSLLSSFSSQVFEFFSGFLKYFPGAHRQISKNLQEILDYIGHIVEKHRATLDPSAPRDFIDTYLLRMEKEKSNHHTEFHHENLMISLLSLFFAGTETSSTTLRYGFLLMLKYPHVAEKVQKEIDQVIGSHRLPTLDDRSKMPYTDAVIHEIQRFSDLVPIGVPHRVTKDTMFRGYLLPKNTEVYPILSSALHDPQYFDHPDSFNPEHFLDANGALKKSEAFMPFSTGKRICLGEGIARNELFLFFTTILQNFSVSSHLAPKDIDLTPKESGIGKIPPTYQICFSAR
SLC10A1: Hepatic sodium/bile acid cotransporter (SLC10A1, Homo sapiens, UniProt Q14973)
UniProt Q14973, sequence (whole entry, looked up): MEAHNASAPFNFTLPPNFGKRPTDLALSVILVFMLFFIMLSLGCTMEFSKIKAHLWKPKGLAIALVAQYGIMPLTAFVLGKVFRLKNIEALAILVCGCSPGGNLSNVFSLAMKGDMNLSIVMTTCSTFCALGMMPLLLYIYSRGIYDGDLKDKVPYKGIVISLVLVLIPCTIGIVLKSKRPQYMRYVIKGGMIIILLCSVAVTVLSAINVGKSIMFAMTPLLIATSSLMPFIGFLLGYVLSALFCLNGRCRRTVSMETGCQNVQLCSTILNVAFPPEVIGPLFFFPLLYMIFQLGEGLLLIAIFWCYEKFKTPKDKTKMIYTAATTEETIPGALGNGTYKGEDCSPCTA
HDAC3 with NCoR2 DAD: Histone deacetylase 3, with NCoR2 DAD (HDAC3, Homo sapiens, UniProt O15379)
UniProt O15379, sequence (whole entry, looked up): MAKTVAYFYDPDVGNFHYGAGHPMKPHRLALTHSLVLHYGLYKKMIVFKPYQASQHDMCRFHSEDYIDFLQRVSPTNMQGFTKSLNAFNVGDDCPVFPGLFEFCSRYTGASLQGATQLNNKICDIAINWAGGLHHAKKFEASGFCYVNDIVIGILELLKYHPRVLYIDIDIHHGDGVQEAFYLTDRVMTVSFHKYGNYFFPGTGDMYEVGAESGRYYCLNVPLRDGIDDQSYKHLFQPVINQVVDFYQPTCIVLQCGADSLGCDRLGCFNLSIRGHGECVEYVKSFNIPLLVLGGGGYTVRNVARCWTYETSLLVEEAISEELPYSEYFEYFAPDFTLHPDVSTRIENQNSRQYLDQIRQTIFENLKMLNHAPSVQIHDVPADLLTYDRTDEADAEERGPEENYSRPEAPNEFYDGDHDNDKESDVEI
UniProt Q16774, sequence (whole entry, looked up): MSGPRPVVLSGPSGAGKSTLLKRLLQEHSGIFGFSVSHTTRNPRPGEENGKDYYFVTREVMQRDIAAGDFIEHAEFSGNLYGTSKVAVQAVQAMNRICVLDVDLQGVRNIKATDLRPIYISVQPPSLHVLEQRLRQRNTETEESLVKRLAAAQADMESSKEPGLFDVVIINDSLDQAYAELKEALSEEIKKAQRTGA
UniProt P20309, sequence (whole entry, looked up): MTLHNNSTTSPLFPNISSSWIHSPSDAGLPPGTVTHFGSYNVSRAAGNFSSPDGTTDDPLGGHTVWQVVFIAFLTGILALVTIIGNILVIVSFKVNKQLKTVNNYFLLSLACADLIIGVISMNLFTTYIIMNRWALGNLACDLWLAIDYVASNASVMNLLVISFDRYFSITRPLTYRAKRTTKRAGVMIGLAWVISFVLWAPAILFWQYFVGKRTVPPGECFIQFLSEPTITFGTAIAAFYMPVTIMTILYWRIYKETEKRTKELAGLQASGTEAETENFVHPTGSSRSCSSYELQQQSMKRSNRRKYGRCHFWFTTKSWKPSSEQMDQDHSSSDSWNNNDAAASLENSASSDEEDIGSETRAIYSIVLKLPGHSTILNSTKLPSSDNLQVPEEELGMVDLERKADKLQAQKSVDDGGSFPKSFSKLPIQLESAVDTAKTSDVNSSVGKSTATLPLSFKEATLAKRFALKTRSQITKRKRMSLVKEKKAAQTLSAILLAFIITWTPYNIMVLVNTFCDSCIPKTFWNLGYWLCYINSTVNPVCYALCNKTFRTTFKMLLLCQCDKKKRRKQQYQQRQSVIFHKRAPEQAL
UniProt P31391, sequence (whole entry, looked up): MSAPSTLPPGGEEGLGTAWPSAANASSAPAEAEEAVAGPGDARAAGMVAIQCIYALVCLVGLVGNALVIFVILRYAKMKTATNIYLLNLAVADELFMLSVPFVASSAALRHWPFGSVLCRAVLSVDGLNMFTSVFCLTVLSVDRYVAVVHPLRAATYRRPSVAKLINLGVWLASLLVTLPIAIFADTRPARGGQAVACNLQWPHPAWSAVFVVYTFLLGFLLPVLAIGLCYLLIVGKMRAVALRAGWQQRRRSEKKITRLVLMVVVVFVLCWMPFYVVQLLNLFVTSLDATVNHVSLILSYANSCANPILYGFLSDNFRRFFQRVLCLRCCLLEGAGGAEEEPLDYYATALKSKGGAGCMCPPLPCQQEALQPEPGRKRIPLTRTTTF

The Ki of Nc1nc2c(ncn2[C@@H]2O[C@H](COP(=O)(O)O)[C@@H](O)[C@H]2O)c(=O)[nH]1 is reported as 3870 µM (GUK1 (Homo sapiens, UniProt Q16774); substrate inhibition, NADH-coupled; KCl 50 mM).
With CCc1nnc(NS(=O)(=O)c2ccc(NC(=O)c3ccc(F)cc3)cc2)s1 the Kd was > 100 µM (CDK2; binding).
C#Cc1ccc2c(=O)cc(-c3ccccc3)oc2c1 has a Ki of > 25 µM (Cyp2b1; fluorimetric PROD; recombinant supersomes; 6 min, pH 7.6, added: pentoxyresorufin).
CCOc1ccc(C(C)=O)cc1Cc1c(O)nc(N)nc1O has a Kd of > 100 µM (CDK2; binding).
The Ki of CCOc1cc(-c2nncn2C)ccc1Nc1ncc2cc(C)nc(NCC(C)(C)C)c2n1 is reported as 0.051 µM (CDK2).
For COC(=O)C1=C(C)NC(C)=C(C(=O)OCCN(C)Cc2ccccc2)C1c1cccc([N+](=O)[O-])c1 (stereo not drawn), the Ki was 309 ± 144 µM (SLC10A1; taurocholate uptake, inhibitor; NTCP-expressing HEK293; added: 10 µM taurocholate).
The Ki of O=c1n(CCCN2CCN(c3cccc(Cl)c3)CC2)nc2ccccn12 is reported as > 10 µM (SSTR4 (Homo sapiens, UniProt P31391)).
With COc1cc2nc(N3CCN(C(=O)C4COc5ccccc5O4)CC3)nc(N)c2cc1OC (stereo not drawn) the Ki was 41.2 ± 7.1 µM (SLC10A1; taurocholate uptake, inhibitor; NTCP-expressing HEK293; added: 10 µM taurocholate).
The Ki of CNC(=O)[C@@]12C[C@@H]1[C@@H](n1cnc3c(NC)nc(C#C[c-]4cccc4)nc31)[C@H](O)[C@@H]2O.[Fe+2].c1cc[cH-]c1 is reported as 1.7 µM (CHRM3 (Homo sapiens, UniProt P20309); radioligand binding (PDSP)).
CCN(CC)CCCC(C)Nc1ccnc2cc(Cl)ccc12 (stereo not drawn) gave a Ki of 336 ± 101 µM (SLC10A1; taurocholate uptake, inhibitor; NTCP-expressing HEK293; added: 10 µM taurocholate).
For C#Cc1cccc(-c2cc(=O)c3ccccc3o2)c1, the Ki was > 25 µM (Cyp2b1; fluorimetric PROD; recombinant supersomes; 6 min, pH 7.6, added: pentoxyresorufin).
The Ki of O=C(NO)c1cncc(OS(=O)(=O)Oc2ccc(-n3ccnc3)cc2)c1 is reported as 0.405 µM (HDAC3 with NCoR2 DAD; enzyme activity, inhibitor, fluorogenic).
C#Cc1cccc2oc(-c3ccccc3)cc(=O)c12 gave a Ki of > 25 µM (Cyp2b1; fluorimetric PROD; recombinant supersomes; 6 min, pH 7.6, added: pentoxyresorufin).
COc1ccc2c(c1)c(CC(=O)O)c(C)n2C(=O)c1ccc(Cl)cc1 has a Ki of 141 ± 14 µM (SLC10A1; taurocholate uptake, inhibitor; NTCP-expressing HEK293; added: 10 µM taurocholate).
With O=C(NO)c1cncc(OS(=O)(=O)Oc2ccc3ccccc3c2)c1 the Ki was 0.273 µM (HDAC3 with NCoR2 DAD; enzyme activity, inhibitor, fluorogenic).
